Published values from different studies.
Parts stem from different laboratories: compare values within a part only.

Set 1
Target: Ras GTPase-activating protein-binding protein 1, RRM domain (G3BP1, Homo sapiens, UniProt Q13283)
UniProt Q13283, sequence (whole entry, looked up): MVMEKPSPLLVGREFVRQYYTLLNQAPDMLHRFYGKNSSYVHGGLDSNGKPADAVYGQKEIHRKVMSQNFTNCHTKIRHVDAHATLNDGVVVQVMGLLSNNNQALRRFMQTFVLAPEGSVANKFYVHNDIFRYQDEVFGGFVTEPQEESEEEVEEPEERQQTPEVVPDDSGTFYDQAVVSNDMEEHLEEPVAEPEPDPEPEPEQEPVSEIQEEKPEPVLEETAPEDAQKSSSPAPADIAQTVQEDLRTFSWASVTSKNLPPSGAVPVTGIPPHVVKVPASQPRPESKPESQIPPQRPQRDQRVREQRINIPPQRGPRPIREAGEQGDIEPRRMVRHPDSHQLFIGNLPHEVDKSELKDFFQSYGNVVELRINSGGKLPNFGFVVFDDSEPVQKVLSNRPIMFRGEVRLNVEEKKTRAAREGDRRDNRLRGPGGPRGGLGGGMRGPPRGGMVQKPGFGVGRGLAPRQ
Method: RNA Bind-n-Seq
Molecule type: RNA
Medium: in vitro
Concentration: 1 µM
Notes: whole 134-nt RNA, ends assumed
With: 150 mM KCl
Relative to: input library
Reading: higher = stronger binding
Shared flanks, not repeated: GGGAGUUCUACAGUCCGACGAUC … UGGAAUUCUCGGGUGUCAAGG
Strand	log2 enrichment
AAGUCCUGUGCUACACAUCGUAUGUACCGAAUCGGGAAAAGGAAAAGGGGAAAAGGAAAGUAUUAUGUUACGCCGUUCGGAUCUGCACUU	-0.112
GUCCUGUGCUACACAUCGUAUGUACCGAAUCGGAAAAAGGGGAAAAAGGAAAAAGGGGAAAGUAUUAUGUUACGCCGUUCGGAUCUGCAC	-0.0435
CAAGUCCUGUGCUACACAUCGUAUGUACCGAAUCGGUUUUGGUUUUGGGGUUUUGGAAAGUAUUAUGUUACGCCGUUCGGAUCUGCACUU	-0.427
CUCAAGUCCUGUGCUACACAUCGUAUGUACCGAAUCGGGCCCGGCCCGGCCCGGAAAGUAUUAUGUUACGCCGUUCGGAUCUGCACUUCC	-0.896
CACAGAAAACACGCACCCACACAGACACAGAGGGAAGGGGUUGGGAUGGGGACAGGGUGCACAGCAGGGCGGGGUAGGACCCCAGCCCCU	-0.323
UCCUGUGCUACACAUCGUAUGUACCGAAUCGGGGAAAAAGGGGAAAAAGGGGAAAGGGGAAAGUAUUAUGUUACGCCGUUCGGAUCUGCA	1.14
CACAGACAACACGCACCCACACAGACACAGAGGGAAGGGGUUGGGAUGGGGACAGGGUGCACAGCAGGGCGAAAUAGGACCCCAGCCCCU	-0.0332
CCUGUGCUACACAUCGUAUGUACCGAAUCGGGUUUUUUUGGGUUUUUUUGGGUUUUUUUGGAAAGUAUUAUGUUACGCCGUUCGGAUCUG	-0.075
UAACUUUAGAGGAGGAUCUGAUGGAUAUGGCAGUGGACGUGGAUUUGGGGAUGGAUAUAAUGGGUAUGGAGGAGGACCUGGAGGUGGCAA	-0.442
UGGGAGGUGGAUUUUGUUUAUUUUAUUAGCUCAUUUCCAGGGGUGGGAAUUUUUUUUUAAUAUGUGUCAUGAAUAAAGUUGUUUUUGAAA	1.81
AGUCCUGUGCUACACAUCGUAUGUACCGAAUCAAAUUUUUAAAUUUUUAAACCCAAAAAAGUAUUAUGUUACGCCGUUCGGAUCUGCACU	-1.32
AAGUCCUGUGCUACACAUCGUAUGUACCGAAUCGGGGUUUGGGGUUUGGGGUUUGGGAAAGUAUUAUGUUACGCCGUUCGGAUCUGCACU	0.481
GCAGGAAGUAAAAACAAAUGGAAAUGCUUCGGAUAGUGGCAGGGGUGGGGGUUGCUAAGGAAAGGGUGGGAUGGGAGUGGGUAAAUAGUU	0.844
UGGCCCUGGUGGCAUGCGGGGAGGAAGAGGUGGCCUCAUGGAUCGUGGUUGUCCCGGUGGAAUGUUCAGAGGUGGCCGUGGUGGAGACAG	0.709

Set 2
Target: UBE2E1 UBC core domain (UniProt P51965)
UniProt P51965, sequence (whole entry, looked up): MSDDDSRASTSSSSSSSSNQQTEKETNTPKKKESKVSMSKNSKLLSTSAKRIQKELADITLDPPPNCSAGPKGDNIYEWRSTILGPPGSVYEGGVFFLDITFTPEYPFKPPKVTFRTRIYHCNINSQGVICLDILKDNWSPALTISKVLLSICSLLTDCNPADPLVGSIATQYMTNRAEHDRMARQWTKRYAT
Method: yeast two-hybrid
Medium: yeast
Notes: mostly zero background
Relative to: not given
Reading: higher = stronger interaction
B1: UHRF2 RING domain (UniProt Q96PU4); chain CGGDPEKKCHSCSCRVCGGKHEPNMQLLCDECNVAYHIYCLNPPLDKVPEEEYWYCPSCKTDSSEVVKAGER
B2: ARK2C RING domain (UniProt Q6ZSG1); chain EGEESDTDEKCTICLSMLEDGEDVRRLPCMHLFHQLCVDQWLAMSKKCPICRVDIETQLGAD
B3: TRIM72 RING domain (UniProt Q6ZMU5); chain APGLLHQELSCPLCLQLFDAPVTAECGHSFCRACLGRVAGEPAADGTVLCPCCQAPTRPQALST
B4: RNF170 RING domain (UniProt Q96K19); chain TRQQFYTDMYCPICLHQASFPVETNCGHLFCGACIIAYWRYGSWLGAISCPICRQTVTLLLTVF
B5: PHF21A RING domain (UniProt Q96BD5); chain SPTSTDGDIHEDFCSVCRKSGQLLMCDTCSRVYHLDCLDPPLKTIPKGMWICPRCQDQMLKKEEAIPW
Sequence	lacZ reporter activity
B1 (UHRF2 RING domain)	0
RLTMMWEEVTCPICLDPFVEPVSIECGHSFCQECISQVGKGGGSVCPVCRQRFLLKNLRP (TRIM21 RING domain (UniProt P19474))	0
B2 (ARK2C RING domain)	9470
B3 (TRIM72 RING domain)	0
B4 (RNF170 RING domain)	0
FASPPDSNFVCSVCHGVLKRPARLPCSHIFCKKCILRWLARQKTCPCCRKEVKRKKVVH (RNF151 RING domain (UniProt Q2KHN1))	0
VTLSLTLPITCHICLGKVRQPVICINNHVFCSICIDLWLKNNSQCPACRVPITPENPCK (OBI1 RING domain (UniProt Q5W0B1))	0
QLRRLQEERTCKVCMDKEVSVVFIPCGHLVVCQECAPSLRKCPICRGIIKGTVRTF (BIRC2 RING domain (UniProt Q13490))	0
B5 (PHF21A RING domain)	0

Set 3
Target: RING finger protein unkempt homolog, zinc fingers 1-6, GST-SBP tag (UNK, Homo sapiens, UniProt Q9C0B0, residues 30-357)
Method: RNA Bind-n-Seq
Molecule type: RNA
Medium: in vitro
Concentration: not given
Notes: RNA with constant flanks, ends assumed
Relative to: input RNA pool
Reading: higher = stronger binding
Shared flanks, not repeated: GGGAGUUCUACAGUCCGACGAUC … CAACAGAGGAUUGAGCAUCA
Residues (chain): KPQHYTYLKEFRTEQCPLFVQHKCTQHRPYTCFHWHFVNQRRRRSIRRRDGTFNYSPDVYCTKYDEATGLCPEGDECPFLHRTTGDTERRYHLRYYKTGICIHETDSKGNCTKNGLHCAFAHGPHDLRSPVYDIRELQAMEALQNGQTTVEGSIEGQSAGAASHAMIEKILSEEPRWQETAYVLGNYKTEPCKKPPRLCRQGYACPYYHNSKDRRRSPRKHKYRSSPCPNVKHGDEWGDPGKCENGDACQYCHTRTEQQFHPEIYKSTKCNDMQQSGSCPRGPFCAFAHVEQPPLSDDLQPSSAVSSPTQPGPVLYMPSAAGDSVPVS
Strand	bound/input enrichment [ratio]
UGUUGGGGGUGGGUAUAAAAGAUGGGGUCUGUAAAAUCUUUUUUUCUUAGAAAUUCAUUUACCCGUUAUGUAGAAAUGGUUGUAUUAGAUGUUCUCUAUCAUUUAAUAAUAUACUUGUGG	4.88
AUCUUAUUACAGGGACUUGCUGUGCUUGCAAAGGAAAGACCACCAAAUCCCAUUGAAUUUCCCGCAUCUUAUCUUUUAAAAAACAAGGCACAGUUUGAAGAUCGAAACUGACUUAAUGGG	0.352
AAGAAGAAGCAAGGUGAAGAUAACUCUACUGCACAGGACACAGAAGAAUUAGAAAAAGAGAUCCGAGAAGACCUUCCAGUGAAUACCUCUAAAACCCGUCCAAAACAGGAAAAAGCUUUU	0.619
GAGUAGUUGAUAGUUGCACUCCCAGUCAUUGAAUUGCUUCUGUGUUUCCCUGUAGGUCCACCGUAACCCUUUGUCAGUCUUACACAUUUGUAAGGACCCUGCAAGACAGCAACAACGACU	0.279
AGAGACCUUCUGAAGACGUUUAAAAUCUCAUCUGACACCUUUGUAACCUACAUGAUGACUUCCGAAGACCAUUACCAUUCUGAUGUGGCAUAUCACAACAGCCUGCAUGCUGCUGACGUG	0.114
GAGUCUGGGUUCAGGGAGCCCGUGCUGGAUGCCAAGUCGGAGGUCACGGGCCAGCUUACCGAUUUUCAGUGGAAACUGGGCAUGGCUGUGAGCUCUGACAGCUGCAGAUCUCUCAAGUAU	0.0847

Set 4
Target: RNA binding protein fox-1 homolog 2, RRM domain, GST-SBP tag (RBFOX2, Homo sapiens, UniProt O43251-10, residues 100-194)
Method: RNA Bind-n-Seq
Molecule type: RNA
Medium: in vitro
Concentration: 365 nM
Notes: natural RNA segment, single round, ends assumed
Relative to: no-protein control
Reading: higher = stronger binding
Shared flanks, not repeated: GGGAGUUCUACAGUCCGACGAUC … UGGAAUUCUCGGGUGCCAA
Target sequence (chain): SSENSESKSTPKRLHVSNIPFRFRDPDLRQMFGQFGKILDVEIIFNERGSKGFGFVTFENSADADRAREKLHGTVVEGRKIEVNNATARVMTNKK
Strand	RBNS enrichment (R)
CCCUUUGGCCUCAUGAAUGGGUUUCAUGAAUGGGCUUCAGUGGCUUAUAAACUCUGUAAAAUUCUAUUCUAAAUUUUGUACAUUUAUUUUGUUCCGGUUAAUUCCAGAAG	0.522
AGUAGUGAGUGGACAGAUGGAAGAAGCACCGUGUCAUUUGCCAGAGUACAAAGACACGAUUACAUAACCAGGUUCAAGGGGGACUUCUGCUUAUCAGUGCUAGGGAUGGG	0.712
CAGCUCUGGCCAAGAGUGGGACAGGGUUUUAACCACAAAUAGGAGCAGCAUGCAAUUCCUAGUGACUUGCUGCACAGUAUUGUAUCAUAAUUACAGGAAGUUUUUAUUUU	1.76
AAAUUUCUUUUUACUUUUGUGGAGCAUUAGAGUCACAGUUUACCUUAUUGAUAUUGGUCUGAUGGUUUGUGAACUCUUGCUGGGAAUCAAAAUUUCCUUGAGACUCUUUA	0.592
AGCUAUUUAAAACCAGUAAGGAGACUUGAAAUUCAGAAAAUCAACACAUUUUUAAAUGACUAACUUCUAAAAGCCCCAACACAUGACGCCAUCUGAAGACCCGCAACGGA	0.457
GAGGAAAGUCUUGUGCCAAGAAUAGUUUAACUGGAAAGAUACUACCUGGAAUAUUAGAUGGAAAGCUUCACAUUAGCAUUUUGUGCAUAAUGAUAGAAACAGAUUCUGAU	5.41
CUGCCAGUGCCUUACAUUCUGGAGCGACCCCCCUCCCUGGUGCCUCCCAGCGAAGGGGGACCGCCGUUUGCACUUUCAUCGCCUACCCCGACGCGGGGCCCAGCUGCGGG	0.366
UCAGUAGCCUUGUGACACUGAACCUGGAUGGAUUAUAGAGGAGCCCUCACGGCUGAUCAAUAAUGUUGCAAAGGGAGACUACAGGGAUCUCACGACGAAUAUUCUGAUAC	0.301
UCCAAAAGUCCCCACUAGUUGGUGUACCUGUCUAUUUCUCUGGAUACUGCUAGCCAAAGGGCUCGGGCCCCCCCCUGGACUGACCUGCCCAUGUAAUUUUCCCACUGCCA	0.576
UCCACCCCCUGAAUGGGUGUGGCUUGUGGCCAUAUUGACAGACCAAUCUAUGGGACUAGGGGGAUUGGCAUCAAGUUGACACCCUUGAACCUGCUAUGGCCUUCAGCAGU	0.717
GAUCGGGGCCAGAGGCAGAACCCUGGUGAGGAAGCUCCAGUCCUGCUCUCUACCCAGCCCAUCUUGCCUCCAUGGUGCCUCUGGAGGCCUCUGGGCCUCCUCUAACAGGG	0.286
AUUAAUUAUGGUUAGCUAUUUUUCUCUCAUUGAUUUUUGUGCCACUUGAAUGGAACAGAAGCAAGCCUUAUGUUUUGGAAGGUCUGCGGUAAAAUGCUGUGACUGUUUAC	0.673

Excerpt of the above (set 4):
Strand	RBNS enrichment (R)
AGUAGUGAGUGGACAGAUGGAAGAAGCACCGUGUCAUUUGCCAGAGUACAAAGACACGAUUACAUAACCAGGUUCAAGGGGGACUUCUGCUUAUCAGUGCUAGGGAUGGG	0.712
UCCAAAAGUCCCCACUAGUUGGUGUACCUGUCUAUUUCUCUGGAUACUGCUAGCCAAAGGGCUCGGGCCCCCCCCUGGACUGACCUGCCCAUGUAAUUUUCCCACUGCCA	0.576
CUGCCAGUGCCUUACAUUCUGGAGCGACCCCCCUCCCUGGUGCCUCCCAGCGAAGGGGGACCGCCGUUUGCACUUUCAUCGCCUACCCCGACGCGGGGCCCAGCUGCGGG	0.366
AUUAAUUAUGGUUAGCUAUUUUUCUCUCAUUGAUUUUUGUGCCACUUGAAUGGAACAGAAGCAAGCCUUAUGUUUUGGAAGGUCUGCGGUAAAAUGCUGUGACUGUUUAC	0.673
GAGGAAAGUCUUGUGCCAAGAAUAGUUUAACUGGAAAGAUACUACCUGGAAUAUUAGAUGGAAAGCUUCACAUUAGCAUUUUGUGCAUAAUGAUAGAAACAGAUUCUGAU	5.41
CCCUUUGGCCUCAUGAAUGGGUUUCAUGAAUGGGCUUCAGUGGCUUAUAAACUCUGUAAAAUUCUAUUCUAAAUUUUGUACAUUUAUUUUGUUCCGGUUAAUUCCAGAAG	0.522
GAUCGGGGCCAGAGGCAGAACCCUGGUGAGGAAGCUCCAGUCCUGCUCUCUACCCAGCCCAUCUUGCCUCCAUGGUGCCUCUGGAGGCCUCUGGGCCUCCUCUAACAGGG	0.286
